Assay results from different studies.
Parts stem from different laboratories: compare values within a part only.

Sample 1
Target: RNA binding protein fox-1 homolog 2, RRM domain, GST-SBP tag (RBFOX2, Homo sapiens, UniProt O43251-10, residues 100-194)
Technique: RNA Bind-n-Seq
Form: RNA
Matrix: in vitro
Tested at: 365 nM
Notes: natural RNA segment, single round, ends assumed
Relative to: no-protein control
Reading: higher = stronger binding
All sequences stand within: GGGAGUUCUACAGUCCGACGAUC … UGGAAUUCUCGGGUGCCAA
Target sequence (chain): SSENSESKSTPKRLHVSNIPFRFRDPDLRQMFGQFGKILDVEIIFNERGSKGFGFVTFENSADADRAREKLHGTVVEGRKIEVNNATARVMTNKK
| Strand | RBNS enrichment (R) |
| --- | --- |
| AUUAUAAAAAGGAAAGGGUUAAUAUAUUUUUGGACUCUGUAGGACAAAAGAGAACUGGUUAACCUUGAAGUGACUGUUGUACAGUGGCUGUGCACGUGCUUCAGACUCAU | 1.33 |
| UUUUUUAAUUGUUCUUUAUGUUUAAAACUUGCAGAGAUAGAAGCAGGCUUCUGAGGUACGGGGUCUUGCUGUGUGCUCUCUCUCCGUGCUGCCGUUAAGCCAAAACAAAA | 0.726 |
| UUAAUCAUUUCUUCUUUGUUUUGUGGUAAAGGGGAAAAAUUAAAAACCAGUUGGAACCCUUUUGUCUACUUUCUUUGUUAACUCUGAGUUUAUGAAUCUAACUAGUGACC | 0.61 |
| CAAAUAGGCCUAUGAUUUAGCUGGCAGGCCAGGUUUUCUCAAGAGCAAAAUCACCCUCUGGCCCCUUGGCAGGUAAGGCCUCCCGGUCAGCAUUAUCCUGCCAGACCUCG | 0.335 |
| GCCCUGUCCCUUCCUCCAGAUCCGUCUGGUUUUUUACACCGUUUGUUAAUAAAGCCUGAAACCGCUGUGUGCCUGUCUCUUCUCUGAUGGCUUUCCCAGUCUGUCUCCGG | 0.999 |
| CCUUUCGGGCUCCUUUUUUAGGUGGUGGGAUUGAGUCCCUACUAGCUCGGAAGGCCUUGAGAGGGCUGAUGGGGAAGUCACUGAGGAUGAAUCUGUCAUCUCAGGCAAUA | 0.653 |
| GACUUUUUUUAUCUUUAUUUUUAUUUUGGAGAUUGGAUUUUUCUAUGUAGCUAUGGCUGUCCUUGAAUUCUCUCUGUAAACCAGGCUGCCCUUGAACUUGUGAUCCUUCU | 0.543 |
| UUCUAGAAUUAUAUGCUAAAUGCAUAUUUUAUGAUUUGCUGUAUUAACUGAUGAUAAAACUAAUGGCAGAAAACAAAUUGAACAAUUUCUAUGUAAUGUACAGAUACUAG | 0.695 |
| AUGAGGAUCCUGAUCCUCUUUUGUCCUCUCCAGGUAGUCUCGCAGGUUAUGCAGCUUAAGUUCAGUCUUCUUUAUGCUGCGAUUGAUUUCCACCUCAGUGGCUUAGCCUU | 0.272 |
| GCAGAGGCCACGCAUGUUUGACCAAAGCCCUCAUUGUGGUCCGAGGACAGCCUUUUCCCCAGGCCUCAGAGCAUUGCUCAUCCGUGCCAAACUGGGUAGGUGGAUUUGAG | 25.9 |
| GUGUAUGGUUAAACUGUAAAUCUUAUGUUUACAAAAUACUGUAAUUUUCAGGAAAUCACUGUAUUAGGAAUGUGCAAUGACUUAUAUAAAUAAAAGCCAUUUUUAAAACU | 0.461 |
| ACGAUUACGGUCUUUAUGACCAAGAGUCUGAAAAUCUUUUUGUUAUGCUGUUUAGUAUUCGUUUGAUAUUGUUACUUUUCACCUGUUGAGCCCAAAUUCAGGAUUGGUUC | 0.333 |

Sample 2
Target: RING finger protein unkempt homolog, zinc fingers 1-6, GST-SBP tag (UNK, Homo sapiens, UniProt Q9C0B0, residues 30-357)
Technique: RNA Bind-n-Seq
Form: RNA
Matrix: in vitro
Tested at: not given
Notes: RNA with constant flanks, human and mouse sites, ends assumed
Relative to: input RNA pool
Reading: higher = stronger binding
All sequences stand within: GGGAGUUCUACAGUCCGACGAUC … CAACAGAGGAUUGAGCAUCA
Construct (chain): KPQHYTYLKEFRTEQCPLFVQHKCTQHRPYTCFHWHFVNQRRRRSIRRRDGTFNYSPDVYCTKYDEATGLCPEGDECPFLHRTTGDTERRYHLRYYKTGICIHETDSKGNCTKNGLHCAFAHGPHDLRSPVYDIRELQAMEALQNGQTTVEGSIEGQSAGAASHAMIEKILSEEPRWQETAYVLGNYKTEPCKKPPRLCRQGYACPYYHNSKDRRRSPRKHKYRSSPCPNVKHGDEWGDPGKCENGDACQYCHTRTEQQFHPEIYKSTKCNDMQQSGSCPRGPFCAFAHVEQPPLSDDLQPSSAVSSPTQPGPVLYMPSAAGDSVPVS
| Strand | bound/input enrichment [ratio] |
| --- | --- |
| AUUACUCUAAUGGAGUACUAUUCCAAAGAAGCCUUGGGUGAUUCCAAAUCUAAGAAGUCAGUAGCUUAUAAUUACGCAUGCAUACUUAUUUUGGUGGUGGUUCAGUCUUCCAGUGAUGUU | 0.431 |
| GGAGGAAUUGUCCUGGUCUUGGGUGUGCAGGCUGUAAUUUUCUUUCUUUAUAAAUUCUGCAAAUCUAAAGAACGAAAUUACCACACUCUGUAAACAGACCCAUUGAAUUAAUAAGGACUG | 0.281 |
| UGUGAUGGGCAUUGAGCCACAUGUCUUCUGAGACUGAAUAUUGACAUUUUUGUUUCAAGUUAUGUUUUUAACAUUUAUUUCAGAACAAUAAAGAUUCAGAUUUGUGACAAAGGCCUUAAA | 0.166 |
| GAUGAAAUGGGUUUGGGAAAGACACUUCAAACAAUUUCUCUUCUUGGAUACAUGAAACACUAUAGAAAUAUUCCUGGUCCUCAUAUGGUUUUGGUUCCCAAGUCUACAUUGCACAACUGG | 0.77 |
| CACUAGGGGUUGGGAAGGGCGGCGGACGGUGCCGGGGGGAGAUUGGCCUGGCAGGCCCUUUUAGCUACCCAUUACUGGACCAGAAAGAUGACAUCUAUCAUCAAGUUAACCACCCUCUCU | 0.514 |
| GGCGGUCGGGCCGCACUCUCCGAGCCCAGAGCAGCGGAGAGACCGCGCGGCGGGGCUUGGGACGGGGACGCGGUGUCGGGGCCGAGGUGGGCCGAGAGCAGCCGCAGCCCCAGCGGCCGG | 0.33 |
| CUGGCUUCUUCAGGUUAUCGCACCACUAUGGAAUCCUUUGCAGAAUGGUACUCAUAUAAUGGUUUAAAACAACACAUUCAUAAUUGACUCUGUGCAGGAUGUCACUCAAUCAGUUUGGGU | 0.0766 |
| UGGCAAGGGUUGUGCAAAUCCACUUGGGGUCACUGUUCCAUAUACAAUAAGAACCCACCUUUAGGAUUUUCUUUUAGAAAAUUGUAUAUGCAGCUGGAUGAAGGCAGCCUCACCUUUAAU | 1.23 |
| CGCAAUGAACUCCUUUGUUUAAGUCUUUAAGCUCUGUGCCAAUGUCUAAUCUCUCUGGAAUGGUUUUCCUGAACACCUGUCAUCCCUCUCAUACUACGGACAUAUGGGUAGAAAGAAUGU | 0.261 |
| AAUGACUUCCUUCAUGGCCAAGUUGGGGAUGAGCUGUUCCUGGGUCAGAGGGCUCCGGGUCACAGGGUCAAAGUGGCCCACACGCUGCAACAGAGUCAAGAGUGUUCAAUGGCCUGAGUA | 0.172 |
| CUAGUGCCAUGGGAACCAGGUCUGAAAAAGUAGAGAGAAGUGAAAGUAGAGUCUGGGAAGUAGCUGCCUAUAACUGAGACUAGACGGAAAAGGAAUACUCGUGUAUUUUAAGAUAUGAAU | 0.678 |

Sample 3
Target: Histone acetyltransferase KAT6A, both winged helices, GST fusion (KAT6A, Homo sapiens, UniProt Q92794, residues 1-181)
Technique: protein binding microarray
Form: double-stranded DNA, one strand shown
Matrix: in vitro
Tested at: not given
Notes: 8-mer, flanks averaged, mean of 2 arrays, mostly near background
Relative to: not given
Reading: higher = stronger binding
Residues (chain): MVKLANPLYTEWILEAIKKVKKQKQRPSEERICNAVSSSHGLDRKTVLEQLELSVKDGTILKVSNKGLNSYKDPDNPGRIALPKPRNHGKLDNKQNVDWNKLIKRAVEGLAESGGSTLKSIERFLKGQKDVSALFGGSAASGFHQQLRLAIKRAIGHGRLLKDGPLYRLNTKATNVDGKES
| Strand | E-score |
| --- | --- |
| ATGACGGC | 0.251 |
| CGTGGATA | 0.126 |
| GCTACGAC | 0.127 |
| ACCCCACA | -0.216 |
| CCGTGTTC | 0.256 |
| CACACCAA | 0.0849 |
| ATGTCGGA | 0.0848 |
| AATGCACG | 0.0635 |
| AGTTAAGA | -0.152 |
| ATTGCAGC | -0.0277 |
| ACGAAAAG | -0.000515 |
| GGTTGATA | -0.0101 |
| CTGTGGGA | -0.13 |
| AGGCACAT | -0.127 |
| AGTTATCG | 0.0233 |
| ACAGAAGG | -0.142 |
| CTAGGCCA | -0.0409 |
| CGCGTGTC | 0.275 |
| GAAGCTTC | -0.0879 |
| CTTTATCC | -0.00851 |
| ACCCGAGC | 0.173 |
| GTCCCGGA | 0.169 |

Sample 4
Target: Ras GTPase-activating protein-binding protein 1, C-terminal RGG region (G3BP1, Homo sapiens, UniProt Q13283)
UniProt Q13283, sequence (whole entry, looked up): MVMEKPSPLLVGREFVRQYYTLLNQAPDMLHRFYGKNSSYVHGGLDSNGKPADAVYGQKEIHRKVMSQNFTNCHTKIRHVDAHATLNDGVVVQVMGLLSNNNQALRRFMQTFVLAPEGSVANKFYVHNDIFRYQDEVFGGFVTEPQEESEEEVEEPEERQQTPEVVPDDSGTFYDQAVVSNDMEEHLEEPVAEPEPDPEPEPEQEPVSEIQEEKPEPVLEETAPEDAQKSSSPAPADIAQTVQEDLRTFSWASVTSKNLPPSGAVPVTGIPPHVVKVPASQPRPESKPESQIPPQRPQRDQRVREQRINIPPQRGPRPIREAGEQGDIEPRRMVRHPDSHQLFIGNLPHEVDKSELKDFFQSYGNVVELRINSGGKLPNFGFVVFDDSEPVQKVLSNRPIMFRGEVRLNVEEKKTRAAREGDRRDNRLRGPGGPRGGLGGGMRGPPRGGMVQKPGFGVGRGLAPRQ
Technique: RNA Bind-n-Seq
Form: RNA
Matrix: in vitro
Tested at: 1 µM
Notes: whole 134-nt RNA, ends assumed
Added: 150 mM KCl
Relative to: input library
Reading: higher = stronger binding
All sequences stand within: GGGAGUUCUACAGUCCGACGAUC … UGGAAUUCUCGGGUGUCAAGG
| Strand | log2 enrichment |
| --- | --- |
| UCCUGUGCUACACAUCGUAUGUACCGAAUCAAAUUUUUAAACCCCCCCAAACCCCCAAAAAAGUAUUAUGUUACGCCGUUCGGAUCUGCA | -0.567 |
| UGUGCUACACAUCGUAUGUACCGAAUCGGGGUUUUUUUGGGGUUUUUUUGGGUUUUUUUGGGGAAAGUAUUAUGUUACGCCGUUCGGAUC | -0.762 |
| AAGUCCUGUGCUACACAUCGUAUGUACCGAAUCGGGAAAGGGGAAAGGGGAAAGGGAAAGUAUUAUGUUACGCCGUUCGGAUCUGCACUU | 1.13 |
| UGCAUCUGCACUGGAGAAAUGGAAGACAGCAAUCCGGGAAGCUCAGACUUUCUCCAGGAUGCACGUGCUGCUUGGGAUGCUUGAUGCCUG | -0.166 |
| AAGUCCUGUGCUACACAUCGUAUGUACCGAAUCGGGGAAAGGGGAAAGGGGAAAGGAAAGUAUUAUGUUACGCCGUUCGGAUCUGCACUU | -0.413 |
| UGGCGCCGUUCGACACCAGGCGGAUCCGCUCUGCAGCACGAACCCAUCUCCAGCCGCAGCCGCAGCCGCCGCCCGGGCCGAGGAGCAGCC | -0.876 |
| AAGUCCUGUGCUACACAUCGUAUGUACCGAAUCGGUUUUUUUGGUUUUUGGUUUGGAAAGUAUUAUGUUACGCCGUUCGGAUCUGCACUU | -1.77 |
| UCAAGUCCUGUGCUACACAUCGUAUGUACCGAAUCGGAAAGGUGGAAAAAAAGGAAAGUAUUAUGUUACGCCGUUCGGAUCUGCACUUCC | -1.76 |
| AAGUCCUGUGCUACACAUCGUAUGUACCGAAUCGGGUUUUUGGGUGGGUUUUUGGGAAAGUAUUAUGUUACGCCGUUCGGAUCUGCACUU | 1.02 |
| GGUAGCAAGAGCUCCAGAGAGAAGUCGAGGAAGAGAGAGACGGGGUCAGAGAGAGCGCGCGGGCGUGCGAGCAGCGAAAGCGACAGGGGC | -0.417 |
| ACCAUGCAGGUGGGCAUCUUUGGGAAGUGGGGCAAGGGGGGGAUAGGGAGGGGGGUAACACUUUGGGAACAGGUGGAAACAGGUCGUUUC | -0.812 |
| UUUGUGAGACAUGUGAAAGGAGGACAUGGUCACAGUCAUGGACAUGGACACGCUCACAGUCAUACACGUGGAAGUCAUGGACAUGGAAGA | -2.41 |
| CAAGUCCUGUGCUACACAUCGUAUGUACCGAAUCGGAAAAAAAGGUUUGGAAAGGAAAGUAUUAUGUUACGCCGUUCGGAUCUGCACUUC | -2.15 |
| UGUGCUACACAUCGUAUGUACCGAAUCGGGGAAAAAGGGGAAAAAAAGGGGAAAAAAAGGGGAAAGUAUUAUGUUACGCCGUUCGGAUCU | 0.203 |
